Published values gathered from unrelated publications.
Numbered parts are unrelated; each lists some results of a single study.

Study 1 — cell line: HEK-293T; observed: pseudovirus infection; technique: FDA-approved drug library screen; organism: VSV pseudotyped with SARS-CoV-2 spike; concentration: 10 µM; time: 16 h; relative to: vehicle-treated; quantity: GFP-positive cells
Structure (SMILES) = O=C(c1ccccc1)c1ccc2n1CCC2C(=O)O (centres unmarked); value = 81.3%
Structure (SMILES) = Nc1ccn([C@@H]2CS[C@H](CO)O2)c(=O)n1; value = 118%
Structure (SMILES) = CO/N=C(\C(=O)N[C@@H]1C(=O)N2C(C(=O)OCOC(=O)C(C)(C)C)=C(/C=C\c3scnc3C)CS[C@H]12)c1csc(N)n1; value = 94%
Structure (SMILES) = COC1=CC(=O)C[C@@H](C)[C@]12Oc1c(Cl)c(OC)cc(OC)c1C2=O; value = 99.3%
Structure (SMILES) = CCCC(=O)O[C@]1(C(=O)CO)CC[C@H]2[C@@H]3CCC4=CC(=O)CC[C@]4(C)[C@H]3[C@@H](O)C[C@@]21C; value = 123%
Structure (SMILES) = c1ccc(CN(CC2=NCCN2)c2ccccc2)cc1; value = 91.1%
Structure (SMILES) = Oc1ncnc2[nH]ncc12; value = 99.2%

Study 2 — technique: protein binding microarray; molecule type: double-stranded DNA, one strand shown; medium: in vitro; concentration: not given; relative to: not given; direction: higher = stronger binding; quantity: E-score
Target: Histone acetyltransferase KAT6A, winged helix 1, GST fusion (KAT6A, Homo sapiens, UniProt Q92794, residues 1-85)
Setting: 8-mer, flanks averaged, mean of 2 arrays, mostly near background
Construct (chain): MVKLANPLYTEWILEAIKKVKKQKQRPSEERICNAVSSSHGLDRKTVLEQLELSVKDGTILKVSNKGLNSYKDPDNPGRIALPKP
Oligonucleotide = ATAGACTC; value = -0.0728
Oligonucleotide = AGGTAACC; value = 0.0845
Oligonucleotide = CAGGAAAC; value = -0.158
Oligonucleotide = TGATCCCA; value = -0.201
Oligonucleotide = CGGGGACC; value = 0.29
Oligonucleotide = TAAAGCTA; value = -0.102
Oligonucleotide = AATTGGTA; value = -0.142
Oligonucleotide = AAGCTCAC; value = -0.0683

Study 3 — technique: protein-binding microarray; molecule type: double-stranded DNA, one strand shown; medium: in vitro; concentration: 250 nM; setting: 60-bp whole probe; with: salmon DNA 0.4 mg/ml; relative to: random background probes; direction: higher = stronger binding; quantity: log fluorescence; constant ends, left off below: GCCTAGCACT … GTCTTGATTCGCTTGACGCTGCTG
Target: Interferon regulatory factor 5, full length, phosphomimetic (IRF5, Homo sapiens, UniProt Q13568-2, residues 1-514, K96S/S451D/S453D/S456D/S462D)
Oligonucleotide = CACCTCCCCCTCTGCCACTGTGCTAG; value = -0.279 z-score
Oligonucleotide = CAGGTTCAGATATAGGACTGTGCTAG; value = -0.187 z-score
Oligonucleotide = AATGCTTCTGTATTCATGAGTGCTAG; value = 0.342 z-score
Oligonucleotide = TAGGTTTCGACACTTGGTTAGTGCTA; value = 5.21 z-score
Oligonucleotide = TAGCTATCGACTATCGGTTAGTGCTA; value = 7.73 z-score

Study 4 — action: inhibitor; concentration: 20 µM; quantity: inhibition
Target: Replicase polyprotein 1ab, nsp13 helicase (rep, Severe acute respiratory syndrome coronavirus 2, UniProt P0DTD1)
SMILES = CCCN(CCC)C1CCc2ccc(O)cc2C1 (centres unmarked); value = 4.72%
SMILES = O=c1ccc2ccccc2o1; value = -0.33%
SMILES = C[C@@]12CC[C@@H]3[C@@](CC[C@H]4[C@@]3(C)CCC[C@@]4(C)C(=O)O)(CC1=O)C2; value = 0.15%
SMILES = CCCN1CCO[C@@H]2c3cc(O)ccc3OC[C@H]21; value = 3.7%
SMILES = Cc1cccc(C(C)c2c[nH]cn2)c1C (centres unmarked); value = 2.58%
SMILES = O=C1O[C@H](CO)[C@@H](O)[C@H](O)[C@H]1O; value = -1.42%
SMILES = Cc1cc(O)cc2c1O[C@](C)(CCC[C@H](C)CCC[C@H](C)CCCC(C)C)CC2; value = -2.4%
SMILES = O=C(O)CC[C@H]1CC[C@@](c2cc(F)ccc2F)(S(=O)(=O)c2ccc(Cl)cc2)CC1; value = -0.74%
SMILES = C[C@@H]1CN(Cc2ccc(F)cc2)[C@@H](C)CN1C(=O)c1cc2c(C(=O)C(=O)N(C)C)cn(C)c2cc1Cl; value = 1.89%
SMILES = COC1=CC(=O)C[C@@H](C)[C@]12Oc1c(Cl)c(OC)cc(OC)c1C2=O; value = 6.05%
SMILES = CC(=O)[C@H]1CC[C@H]2[C@@H]3CC[C@H]4C[C@H](O)CC[C@]4(C)[C@H]3C(=O)C[C@]12C; value = 6.98%
SMILES = CN1C(=O)N(C)C2C1N(C)C(=O)N2C (centres unmarked); value = 2.55%
SMILES = O=C(NCCN1CCC2(CC1)C(=O)NCN2c1cccc(F)c1)c1ccc(F)c(F)c1; value = 12.2%
SMILES = N[C@@H]1CN(c2c(F)cc3c(=O)c(C(=O)O)cn([C@@H]4C[C@@H]4F)c3c2Cl)CC12CC2; value = 3.29%
SMILES = NCCCC[C@@H]1NC(=O)[C@@H](Cc2c[nH]c3ccccc23)NC(=O)[C@H](c2ccccc2)NC(=O)[C@@H]2C[C@@H](OC(=O)NCCN)CN2C(=O)[C@H](Cc2ccccc2)NC(=O)[C@H](Cc2ccc(OCc3ccccc3)cc2)NC1=O; value = 14.9%
SMILES = Cc1c(Cc2ccc3ccccc3n2)c2cc(F)ccc2n1CC(=O)O; value = 2.04%
SMILES = N[C@@H](Cc1cc(-c2ccc(Cl)cc2Cl)cc(CP(=O)(O)O)c1O)C(=O)O; value = 28.9%

Single results of other studies
Compound = CC(C)C[C@@H](C=O)NC(=O)[C@H](CC(C)C)NC(=O)[C@H](CC(C)C)NC(=O)OCc1ccccc1; organism = SARS-CoV-2; observed = viral RNA reduction; cells = Vero E6; quantity = EC50; value = 100 nM

Excerpt of the above (study 4):
SMILES = NCCCC[C@@H]1NC(=O)[C@@H](Cc2c[nH]c3ccccc23)NC(=O)[C@H](c2ccccc2)NC(=O)[C@@H]2C[C@@H](OC(=O)NCCN)CN2C(=O)[C@H](Cc2ccccc2)NC(=O)[C@H](Cc2ccc(OCc3ccccc3)cc2)NC1=O; value = 14.9%
SMILES = Cc1c(Cc2ccc3ccccc3n2)c2cc(F)ccc2n1CC(=O)O; value = 2.04%
SMILES = N[C@@H](Cc1cc(-c2ccc(Cl)cc2Cl)cc(CP(=O)(O)O)c1O)C(=O)O; value = 28.9%
